# Measured values from different studies.
# Lines come from different studies, so protocols differ. Numbers after ± are the reported error.
# Sequence of UniProt P45985 (whole entry, looked up): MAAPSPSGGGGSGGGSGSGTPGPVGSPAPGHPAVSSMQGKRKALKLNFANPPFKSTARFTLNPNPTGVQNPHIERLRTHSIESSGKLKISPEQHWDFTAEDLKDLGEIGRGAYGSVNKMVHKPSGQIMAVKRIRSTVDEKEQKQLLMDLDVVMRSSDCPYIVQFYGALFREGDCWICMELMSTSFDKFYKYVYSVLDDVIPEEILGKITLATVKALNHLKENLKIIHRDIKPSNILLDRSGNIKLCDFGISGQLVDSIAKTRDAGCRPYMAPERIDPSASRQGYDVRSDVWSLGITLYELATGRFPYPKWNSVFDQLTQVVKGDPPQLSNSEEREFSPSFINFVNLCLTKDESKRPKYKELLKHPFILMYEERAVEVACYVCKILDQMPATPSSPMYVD
# Sequence of UniProt P08631 (whole entry, looked up): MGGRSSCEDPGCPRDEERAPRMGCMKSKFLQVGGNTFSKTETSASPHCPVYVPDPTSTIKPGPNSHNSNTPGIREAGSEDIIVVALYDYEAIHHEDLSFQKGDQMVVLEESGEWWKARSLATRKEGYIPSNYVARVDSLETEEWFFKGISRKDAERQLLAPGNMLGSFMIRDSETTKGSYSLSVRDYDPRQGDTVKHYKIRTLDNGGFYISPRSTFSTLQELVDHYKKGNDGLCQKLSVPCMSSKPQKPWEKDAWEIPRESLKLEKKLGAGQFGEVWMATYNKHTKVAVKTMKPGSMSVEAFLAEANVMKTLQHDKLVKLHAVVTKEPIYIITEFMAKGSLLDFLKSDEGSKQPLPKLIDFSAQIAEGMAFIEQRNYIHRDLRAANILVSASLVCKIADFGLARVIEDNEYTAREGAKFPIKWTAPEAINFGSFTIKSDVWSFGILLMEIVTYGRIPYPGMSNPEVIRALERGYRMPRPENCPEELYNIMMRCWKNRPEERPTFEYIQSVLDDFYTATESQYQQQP
# Sequence of UniProt P19784 (whole entry, looked up): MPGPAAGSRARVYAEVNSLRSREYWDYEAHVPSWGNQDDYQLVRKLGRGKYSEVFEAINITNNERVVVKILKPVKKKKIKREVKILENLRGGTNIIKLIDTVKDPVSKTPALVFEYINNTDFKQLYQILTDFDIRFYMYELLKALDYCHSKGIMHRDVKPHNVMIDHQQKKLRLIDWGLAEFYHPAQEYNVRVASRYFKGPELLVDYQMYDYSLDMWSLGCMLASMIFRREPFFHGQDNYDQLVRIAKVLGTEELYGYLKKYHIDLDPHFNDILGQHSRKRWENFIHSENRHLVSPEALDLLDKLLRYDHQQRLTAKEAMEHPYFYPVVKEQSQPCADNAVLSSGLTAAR
Structure (SMILES),tested on,test,system,setting,scale,quantity,result
CN(C)[C@H]1C[C@@]23CC[C@@]4(O2)C(=CC[C@]2(C)[C@@H](c5ccc6ccncc6c5)CC[C@H]24)C=C3[C@@H](O)[C@@H]1O,"MAP2K4 (Homo sapiens, UniProt P45985)","ATP probe labelling, inhibitor, KiNativ profiling",,0.1 µM,,inhibition,10.4%
Cc1cc(Oc2nc(N3CC[C@@H](c4ccncc4)C3)ncc2F)[nH]n1,muscle cancer cell lines,cell proliferation,,average over lines,,IC50,49 µM
CS(C)(=O)=Nc1ccc(-c2ccc(-c3nc4cc(O[C@@H]5CO[C@H]6[C@@H]5OC[C@H]6O)[nH]c4cc3F)cc2)cc1,"CSNK2A2 (Homo sapiens, UniProt P19784)","enzyme activity, inhibitor",,10 µM,,inhibition,-10%
O=C1NC2(CC2)COc2ncc(F)cc2[C@H]2COCCN2c2ccn3ncc1c3n2,,,"Sprague-Dawley rat, male, heart","oral, 5 mg/kg/day, 4 weeks dosing, end of recovery",,organ-to-brain weight ratio,70 ± 3.9%
COc1ccccc1-c1n[nH]c2nc(N[C@H]3CC[C@H](NS(=O)(=O)CC(C)C)CC3)ncc12,,"bead binding, competition bead pull-down, measured: LINJ.25.1530",Leishmania donovani extract,10 µM,reference: vehicle,relative abundance,0.47
CC(C)CC(C(=O)N1CC2(CC1C#N)C(=O)Nc1ccccc12)N(C)C(=O)c1cc2c(F)cc(F)c(F)c2[nH]1 (stereo not shown),Human coronavirus 229E,cytopathic effect,MRC5,1.852 nM,,inhibition,19%
CC(C)(C)C(=O)OCOP(=O)(OCOC(=O)C(C)(C)C)C1CCCN(O)C1=O (stereo not shown),OVCAR-8,,,,,TGI,8.91 µM
COc1ccccc1-c1n[nH]c2nc(NC3CCN(C(=O)Cc4ccc(F)cc4F)CC3)ncc12,,"bead binding, competition bead pull-down, measured: LINJ.10.0330",Leishmania donovani axenic amastigote extract,10 µM,reference: vehicle,relative abundance,0.96
CC(C)[C@H]1NC(=O)C[C@H]2/C=C/CCSSC[C@@H](NC1=O)C(=O)N[C@H](Cc1cccc3ccccc13)C(=O)NCC(=O)O2,"HCK (Homo sapiens, UniProt P08631)","enzyme activity, inhibitor",,10 µM,,inhibition,-3.6%
CCN(CC)C(=O)[C@@H]1C=C2c3cccc4c3c(cn4C(=O)c3cccs3)C[C@H]2N(C)C1,,magnetometer,"C57BL/6J mouse, male","intraperitoneal, 0.5 mg/kg, 30 min session",,head-twitch response count,18.2
CN(CCO)CCO.O=C(O)C(Cl)Cl,Chenopodium album,herbicidal activity,,"15 mg/mL, 21 days, post-emergence greenhouse",,inhibition,-54%
CCN(CC)C(=O)[C@@H]1C=C2c3cccc4c3c(cn4C(=O)c3ccco3)C[C@H]2N(C)C1,,magnetometer,"C57BL/6J mouse, male","intraperitoneal, 1 mg/kg, 30 min session",,head-twitch response count,41.8
Cc1cc(C(=O)Nc2nc3cccc(C)c3n2[C@H]2CCCCN(C(=O)/C=C/CN(C)C)C2)ccn1,Trypanosoma brucei,propidium iodide flow cytometry,bloodstream form,"concentration not given, 16 h",,cells in G1 phase,33.9%

# Repeated from above:
Structure (SMILES),tested on,test,system,setting,scale,quantity,result
CN(C)[C@H]1C[C@@]23CC[C@@]4(O2)C(=CC[C@]2(C)[C@@H](c5ccc6ccncc6c5)CC[C@H]24)C=C3[C@@H](O)[C@@H]1O,"MAP2K4 (Homo sapiens, UniProt P45985)","ATP probe labelling, inhibitor, KiNativ profiling",,0.1 µM,,inhibition,10.4%
